Published values gathered from unrelated publications.
Numbered parts are unrelated; each lists some results of a single study.

Sample 1 — technique: RNA Bind-n-Seq; molecule type: RNA; matrix: in vitro; concentration: 365 nM; reference: no-protein control; direction: higher = stronger binding
Target: RNA binding protein fox-1 homolog 2, RRM domain, GST-SBP tag (RBFOX2, Homo sapiens, UniProt O43251-10, residues 100-194)
Setting: natural RNA segment, single round, ends assumed
Constant ends, left off below: GGGAGUUCUACAGUCCGACGAUC … UGGAAUUCUCGGGUGCCAA
Target sequence (chain): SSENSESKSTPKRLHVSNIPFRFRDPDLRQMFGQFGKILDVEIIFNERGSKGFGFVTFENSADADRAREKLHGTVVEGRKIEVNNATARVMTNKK
For `CACUGGCUCUGGCGAUGAGUCAUUGUGCAAUUAGAAUCAUAUCUUAUGAUUUAUUUUCUGUCAUUAAAAAAAUGUACAUUAAAAAAAAAAGUCACCAGGUAGCUUCCAUG`, “RBNS enrichment (R)” read 0.493.
`GAAUGGUACUUAGGGAUGGAAAACGGGCCUGGCUAGAGCUUCGGGUGUGUGUGUCUGUCUGUGUGUAUGCAUACAUAUGUGUGUAUAUAUGGUUUUGUCAGGUGUGUAAA` — result for “RBNS enrichment (R)”: 0.762.
`CUUUGUUAAUUAAAGGCAAUUUUAUUACCUGUCUAAUUAAGAAUAUAUUUCCAAGUUAGCAGUUAUGCAGCUCAAAAGCAGUAUUUGGCUUUAUAGUAAAUUUGUUUCUA` — result for “RBNS enrichment (R)”: 0.344.
`UUCUAGUUCUUGGUUUCUCAUAGAUUUUUAAACUAUCUAAUUAGAGAACACUUUUGAUCCAUCACAGCAGGUCACCAGCCAUGACAAGGCUCAAUCUAGGACUCUCAGCU`: “RBNS enrichment (R)” 0.329.
Under “RBNS enrichment (R)”, `CUCUGAGCCAAAGCUCUGGGGCCUUGCAUUCCCUGCAUUGGGUUGAUGACUGUCAGCAUCACUGCCGCAGGCCAUGCUUGACUAAGGUACCUGGUUUUAGCCACAGCCAC` is recorded as 0.471.
For `UGUGUUCCUGGAGAAGGCAUUCCAGGGUUGAAUCUUGUCCCAGCCUCAGCCUGGGACACCUAGGUGGAGAGAGUGGUCUCCGCUCUGAAUUGGAUCCAGGGGACCUGGGC`, “RBNS enrichment (R)” read 0.455.
Under “RBNS enrichment (R)”, `UAAUCUGGGCCUAAGCUAGUGAGAGUAUGGAACAAUGGCCCAUAAGGACUCCUAAGCGCCGAAGCCAAGGAGCCUCCUCCCUUCCUGGUUCACCCCGCCCAAGGGACCUG` is recorded as 0.518.
Under “RBNS enrichment (R)”, `CUUUGCGGAUGACCUCAUUUUGAUGUUAAAAAAAAACUGAUUUUUUUAAUAUGUGGACGCUGCAAAAAAUGUGUUUAAAUUAUCUUUUUUAAGAUGAAUUAAGGACUAUU` is recorded as 0.383.

Sample 2 — technique: RNA Bind-n-Seq; molecule type: RNA; matrix: in vitro; concentration: 1 µM; setting: whole 134-nt RNA, ends assumed; together with: 150 mM KCl; reference: input library; direction: higher = stronger binding
Target: Ras GTPase-activating protein-binding protein 1, RRM domain (G3BP1, Homo sapiens, UniProt Q13283)
Chain of UniProt Q13283 (whole entry, looked up): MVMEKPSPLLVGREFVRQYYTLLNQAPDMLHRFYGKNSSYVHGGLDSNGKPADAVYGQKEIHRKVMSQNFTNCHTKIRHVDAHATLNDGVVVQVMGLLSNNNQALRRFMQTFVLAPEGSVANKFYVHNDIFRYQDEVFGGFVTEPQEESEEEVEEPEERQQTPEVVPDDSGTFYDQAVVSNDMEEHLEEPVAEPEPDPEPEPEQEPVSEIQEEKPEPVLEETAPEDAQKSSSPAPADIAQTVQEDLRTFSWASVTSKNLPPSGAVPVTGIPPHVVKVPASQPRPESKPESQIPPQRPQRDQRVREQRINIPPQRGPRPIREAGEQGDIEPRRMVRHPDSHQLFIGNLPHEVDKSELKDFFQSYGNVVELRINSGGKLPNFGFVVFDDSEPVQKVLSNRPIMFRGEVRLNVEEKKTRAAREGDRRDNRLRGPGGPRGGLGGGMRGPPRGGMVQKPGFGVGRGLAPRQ
Constant ends, left off below: GGGAGUUCUACAGUCCGACGAUC … UGGAAUUCUCGGGUGUCAAGG
With `GCAGGAAGUAAAAACAAAUGGAAAUGCUUCGGAUAGUGGCAGGGGUGGGGGUUGCUAAGGAAAGGGUGGGAUGGGAGUGGAAAAAGAGUU` the log2 enrichment was 1.14.
With `CAAGUCCUGUGCUACACAUCGUAUGUACCGAAUCGGAAAAGGAAAAGGGAAAAGGGAAAGUAUUAUGUUACGCCGUUCGGAUCUGCACUU` the log2 enrichment was -0.227.
`CACAGACAAGACGCACCCACACAGACACAGAGGGAAGGGGUUGGGAUGGGGACAGGGUGCACAGCAGGGCGGGGUAGGACCCCAGCCCCU` gave a log2 enrichment of -0.0621.
With `UCCUGUGCUACACAUCGUAUGUACCGAAUCAAACCCCCCCAAAUUUAAAUUUUUUUAAAAAAGUAUUAUGUUACGCCGUUCGGAUCUGCA` the log2 enrichment was -0.363.
For `AGUCCUGUGCUACACAUCGUAUGUACCGAAUCGGGAAAAAGGGAGGGUUUUUUUGGGAAAGUAUUAUGUUACGCCGUUCGGAUCUGCACU`, the log2 enrichment was 0.425.
For `AGUCCUGUGCUACACAUCGUAUGUACCGAAUCGGCCCCCGGGCCCCCGGGCCCCCGGGAAAGUAUUAUGUUACGCCGUUCGGAUCUGCAC`, the log2 enrichment was -0.66.
The log2 enrichment of `AGUCCUGUGCUACACAUCGUAUGUACCGAAUCAAACCCCCCCAAAUUUAAAUUUAAAAAAGUAUUAUGUUACGCCGUUCGGAUCUGCACU` is reported as -0.114.
`ACCAUGCAGGUGGGCAUCUUUGGGAAGUGGGGCAAGGGGGGGAUAGGGAGGGUGGUAACACUUUGGGAACAGGUGGUCCCAGGUCGUUUC` gave a log2 enrichment of 0.861.
The log2 enrichment of `GUCCUGUGCUACACAUCGUAUGUACCGAAUCGGGUUUGGGAAAAAGGGAAAAAAAGGGAAAGUAUUAUGUUACGCCGUUCGGAUCUGCAC` is reported as 0.205.

Sample 3 — technique: universal PBM; molecule type: double-stranded DNA, one strand shown; matrix: in vitro; concentration: not given; direction: higher = stronger binding
Target: Sal-like protein 4, full length isoform B (SALL4, Homo sapiens, UniProt Q9UJQ4-2, residues 1-616)
Setting: 8-mer, flanks averaged, mean of replicates
Construct (chain): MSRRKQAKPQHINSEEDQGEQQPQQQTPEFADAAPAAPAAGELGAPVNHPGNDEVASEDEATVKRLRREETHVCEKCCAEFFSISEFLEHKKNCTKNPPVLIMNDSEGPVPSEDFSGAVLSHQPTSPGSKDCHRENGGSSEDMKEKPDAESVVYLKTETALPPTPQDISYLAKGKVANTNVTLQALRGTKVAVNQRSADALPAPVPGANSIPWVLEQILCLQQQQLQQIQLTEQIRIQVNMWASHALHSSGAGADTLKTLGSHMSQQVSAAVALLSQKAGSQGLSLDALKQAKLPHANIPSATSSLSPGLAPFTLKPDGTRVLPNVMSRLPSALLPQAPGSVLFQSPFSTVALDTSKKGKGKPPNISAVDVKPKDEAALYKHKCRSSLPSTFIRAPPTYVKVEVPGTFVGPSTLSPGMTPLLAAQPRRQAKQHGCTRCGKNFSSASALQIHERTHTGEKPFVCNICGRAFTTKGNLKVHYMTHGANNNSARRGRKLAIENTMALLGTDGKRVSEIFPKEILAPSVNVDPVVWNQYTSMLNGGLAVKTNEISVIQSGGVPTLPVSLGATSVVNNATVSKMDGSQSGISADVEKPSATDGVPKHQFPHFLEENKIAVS
For `CGGTAGAG`, the E-score was -0.227.
With `GCTGTGCC` the E-score was -0.17.
The E-score of `CAATGAGA` is reported as 0.0605.
For `CGGCCGAC`, the E-score was -0.196.
The E-score of `AGAACCAG` is reported as -0.101.
With `AAGTTTTG` the E-score was 0.137.
`AAAGACAC` gave an E-score of 0.0643.
For `GCTTAACA`, the E-score was 0.104.
With `GGTCTCCA` the E-score was -0.143.
For `ACACCGAT`, the E-score was -0.132.
`ACTCCTCC` has an E-score of -0.208.
`AGAAAGAA` has an E-score of 0.147.
For `GAGATAAC`, the E-score was 0.0281.
With `CCAGTAGG` the E-score was -0.222.
`GCAATTCA` gave an E-score of 0.113.
`AGACAATC` gave an E-score of -0.00343.
`AGGAGTAG` has an E-score of -0.00912.
With `GTCGAAAA` the E-score was 0.0628.
`CACAGCTC` gave an E-score of -0.161.
`TCGCAGCA` gave an E-score of -0.0492.
With `AAGCAAAC` the E-score was 0.0828.
For `ACCTACGC`, the E-score was -0.123.
For `GTCGTCTA`, the E-score was -0.0904.
`CATCCACG` has an E-score of 0.0142.

Sample 4 — technique: protein-binding microarray; molecule type: double-stranded DNA, one strand shown; matrix: in vitro; concentration: 2540 nM top; setting: 60-bp whole probe; together with: salmon DNA 0.4 mg/ml; reference: random background probes; direction: higher = stronger binding; constant ends, left off below: GCCTAGCAC … GTCTTGATTCGCTTGACGCTGCTG
Target: Interferon regulatory factor 3, full length, phosphomimetic (IRF3, Homo sapiens, UniProt Q14653, residues 1-427, S386D/S396D/S398D/S402D/T404D/S405D)
Target sequence (chain): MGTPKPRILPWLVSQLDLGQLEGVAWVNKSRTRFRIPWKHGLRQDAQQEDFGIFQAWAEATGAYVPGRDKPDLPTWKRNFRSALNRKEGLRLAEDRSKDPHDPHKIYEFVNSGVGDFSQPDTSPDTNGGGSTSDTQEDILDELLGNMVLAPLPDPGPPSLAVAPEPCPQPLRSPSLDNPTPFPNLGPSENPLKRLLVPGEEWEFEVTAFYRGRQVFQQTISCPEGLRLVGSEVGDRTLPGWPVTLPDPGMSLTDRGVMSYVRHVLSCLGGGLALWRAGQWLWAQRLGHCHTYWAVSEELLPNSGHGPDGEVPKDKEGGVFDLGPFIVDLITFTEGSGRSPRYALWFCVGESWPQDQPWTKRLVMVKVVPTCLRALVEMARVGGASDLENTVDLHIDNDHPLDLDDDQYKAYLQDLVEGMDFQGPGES
Under “fitted relative affinity”, `GGCGATATCAGTTTCGAGACGTGCTAG` is recorded as 3.53 z-score.
Under “fitted relative affinity”, `GACTGACTGGGTATCGGGACGTGCTAG` is recorded as -0.247 z-score.
Under “fitted relative affinity”, `TCATAATTCCTGCCTGAGACTGTGCTA` is recorded as 0.255 z-score.
`TTCGGTATCGGTCTCGGTTAGTGCTAG` — result for “fitted relative affinity”: 4.9 z-score.
`TTTTCTCTTATTCTAACAGCGTGCTAG`: “fitted relative affinity” 3.02 z-score.
`ACTTAAACTAGAAACTGACTTGTGCTA`: “fitted relative affinity” 0.213 z-score.
`GACGAACTGTGTTTCGAGACGTGCTAG`: “fitted relative affinity” 0.886 z-score.
For `TTAGGTTTCAGTTCCGATTAGTGCTAG`, “fitted relative affinity” read 6.42 z-score.
`AAGGTTACCCATCTCAAGTAGTGCTAG`: “fitted relative affinity” 3.97 z-score.
`GACGAGCTGAGTATCGAGACGTGCTAG`: “fitted relative affinity” -0.142 z-score.
For `GACGGTTTCCTTTCACTGACGTGCTAG`, “fitted relative affinity” read 9.37 z-score.
`TCATTTCAGTTTCTCTTACTGTGCTAG` — result for “fitted relative affinity”: 4.35 z-score.
Under “fitted relative affinity”, `ATAGGACTGGACTATCGGTTAGTGCTA` is recorded as -0.242 z-score.
For `TCAGGTCTCCTTATCCTTTAGTGCTAG`, “fitted relative affinity” read 3.46 z-score.
`TTAGATATCGGGTTTCGCTTAGTGCTA` — result for “fitted relative affinity”: 1.53 z-score.
For `GTGTATATGGACGTCTGAAGGTGCTAG`, “fitted relative affinity” read -0.226 z-score.
`GACGCACTGAGTTTCGAGACGTGCTAG` — result for “fitted relative affinity”: 0.968 z-score.
`TCAACAATGATGTTTTGAACTGTGCTA`: “fitted relative affinity” -0.347 z-score.
For `GACGATTACGGGACTGGAGACGTGCTA`, “fitted relative affinity” read -0.208 z-score.

A few entries again (sample 2):
With `GCAGGAAGUAAAAACAAAUGGAAAUGCUUCGGAUAGUGGCAGGGGUGGGGGUUGCUAAGGAAAGGGUGGGAUGGGAGUGGAAAAAGAGUU` the log2 enrichment was 1.14.
With `CAAGUCCUGUGCUACACAUCGUAUGUACCGAAUCGGAAAAGGAAAAGGGAAAAGGGAAAGUAUUAUGUUACGCCGUUCGGAUCUGCACUU` the log2 enrichment was -0.227.
`CACAGACAAGACGCACCCACACAGACACAGAGGGAAGGGGUUGGGAUGGGGACAGGGUGCACAGCAGGGCGGGGUAGGACCCCAGCCCCU` gave a log2 enrichment of -0.0621.
With `UCCUGUGCUACACAUCGUAUGUACCGAAUCAAACCCCCCCAAAUUUAAAUUUUUUUAAAAAAGUAUUAUGUUACGCCGUUCGGAUCUGCA` the log2 enrichment was -0.363.
For `AGUCCUGUGCUACACAUCGUAUGUACCGAAUCGGGAAAAAGGGAGGGUUUUUUUGGGAAAGUAUUAUGUUACGCCGUUCGGAUCUGCACU`, the log2 enrichment was 0.425.
For `AGUCCUGUGCUACACAUCGUAUGUACCGAAUCGGCCCCCGGGCCCCCGGGCCCCCGGGAAAGUAUUAUGUUACGCCGUUCGGAUCUGCAC`, the log2 enrichment was -0.66.
The log2 enrichment of `AGUCCUGUGCUACACAUCGUAUGUACCGAAUCAAACCCCCCCAAAUUUAAAUUUAAAAAAGUAUUAUGUUACGCCGUUCGGAUCUGCACU` is reported as -0.114.
`ACCAUGCAGGUGGGCAUCUUUGGGAAGUGGGGCAAGGGGGGGAUAGGGAGGGUGGUAACACUUUGGGAACAGGUGGUCCCAGGUCGUUUC` gave a log2 enrichment of 0.861.
The log2 enrichment of `GUCCUGUGCUACACAUCGUAUGUACCGAAUCGGGUUUGGGAAAAAGGGAAAAAAAGGGAAAGUAUUAUGUUACGCCGUUCGGAUCUGCAC` is reported as 0.205.
